Results collected from several papers.
Parts stem from different laboratories: compare values within a part only. Positions count from the first letter of the parent shown.
Sequence of UniProt P51965 (whole entry, looked up): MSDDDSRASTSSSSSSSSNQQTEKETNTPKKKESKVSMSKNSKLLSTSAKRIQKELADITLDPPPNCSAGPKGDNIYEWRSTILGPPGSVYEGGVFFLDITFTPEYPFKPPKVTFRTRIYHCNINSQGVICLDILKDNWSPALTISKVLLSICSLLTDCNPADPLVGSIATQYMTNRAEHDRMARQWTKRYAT
Sequence of UniProt P49427 (whole entry, looked up): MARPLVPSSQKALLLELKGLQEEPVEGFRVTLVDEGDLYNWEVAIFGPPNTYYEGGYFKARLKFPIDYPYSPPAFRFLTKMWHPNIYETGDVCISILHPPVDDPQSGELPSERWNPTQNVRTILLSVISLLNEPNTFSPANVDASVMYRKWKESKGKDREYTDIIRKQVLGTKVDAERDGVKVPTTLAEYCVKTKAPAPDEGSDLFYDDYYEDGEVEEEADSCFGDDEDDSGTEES
Sequence of UniProt Q96LR5 (whole entry, looked up): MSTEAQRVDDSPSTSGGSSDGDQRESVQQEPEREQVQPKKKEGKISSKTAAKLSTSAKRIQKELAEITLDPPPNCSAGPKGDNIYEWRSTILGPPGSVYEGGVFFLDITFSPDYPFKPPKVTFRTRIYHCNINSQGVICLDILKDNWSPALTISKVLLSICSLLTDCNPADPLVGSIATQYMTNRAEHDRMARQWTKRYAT
Sequence of UniProt O14933 (whole entry, looked up): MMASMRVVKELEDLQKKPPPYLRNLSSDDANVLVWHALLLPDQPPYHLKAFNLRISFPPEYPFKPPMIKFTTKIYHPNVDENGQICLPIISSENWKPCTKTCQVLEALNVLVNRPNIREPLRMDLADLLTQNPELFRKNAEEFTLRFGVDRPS
Sequence of UniProt P60604 (whole entry, looked up): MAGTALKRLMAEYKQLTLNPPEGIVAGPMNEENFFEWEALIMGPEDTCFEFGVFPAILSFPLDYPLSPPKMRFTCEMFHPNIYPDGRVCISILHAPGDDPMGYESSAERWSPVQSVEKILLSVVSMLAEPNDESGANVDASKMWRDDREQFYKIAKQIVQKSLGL
Sequence of UniProt Q5VVX9 (whole entry, looked up): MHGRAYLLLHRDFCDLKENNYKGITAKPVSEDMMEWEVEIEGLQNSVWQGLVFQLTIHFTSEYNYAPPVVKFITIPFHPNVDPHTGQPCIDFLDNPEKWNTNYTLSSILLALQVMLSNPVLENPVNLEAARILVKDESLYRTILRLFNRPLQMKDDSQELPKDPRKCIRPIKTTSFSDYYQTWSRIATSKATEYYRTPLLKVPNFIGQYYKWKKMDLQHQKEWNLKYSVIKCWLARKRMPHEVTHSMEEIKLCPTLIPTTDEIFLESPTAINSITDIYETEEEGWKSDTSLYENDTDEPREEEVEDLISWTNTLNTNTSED

Set 1
Substance: BRCA1 RING domain (UniProt P38398)
Technique: yeast two-hybrid
Medium: yeast
Notes: mostly zero background
Reference: not given
Direction: higher = stronger interaction
target	lacZ reporter activity
UBE2E1 UBC core domain (UniProt P51965)	0
UBE2U UBC core domain (UniProt Q5VVX9)	12600
UBE2G2 UBC core domain (UniProt P60604)	0
UBE2E2 UBC core domain (UniProt Q96LR5)	0
UBE2L6 UBC core domain (UniProt O14933)	0
CDC34 UBC core domain (UniProt P49427)	0

Set 2
Target: ABI1, truncated, D143A, DHFR fusion (Arabidopsis thaliana)
Technique: DHFR PCA, deep sequencing
Medium: yeast
Notes: methotrexate growth selection, single substitutions
Added: (+)-ABA 1.4 µM
Reference: wild-type fitted maximum
Direction: higher = stronger binding
Starting sequence: PYL1, truncated, DHFR fusion (Arabidopsis thaliana); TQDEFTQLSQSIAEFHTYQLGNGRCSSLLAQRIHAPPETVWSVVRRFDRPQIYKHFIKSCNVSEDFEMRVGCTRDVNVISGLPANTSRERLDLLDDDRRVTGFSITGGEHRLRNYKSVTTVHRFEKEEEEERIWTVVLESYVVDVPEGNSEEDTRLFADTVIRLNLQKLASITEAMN; partner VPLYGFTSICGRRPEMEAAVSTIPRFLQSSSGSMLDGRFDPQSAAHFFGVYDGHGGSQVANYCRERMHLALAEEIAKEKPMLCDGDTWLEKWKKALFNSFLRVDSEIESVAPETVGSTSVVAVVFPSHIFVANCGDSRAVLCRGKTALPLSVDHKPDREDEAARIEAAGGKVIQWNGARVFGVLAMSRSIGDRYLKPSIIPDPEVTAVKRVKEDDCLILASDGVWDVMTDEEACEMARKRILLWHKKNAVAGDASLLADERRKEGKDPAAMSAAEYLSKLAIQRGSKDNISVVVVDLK
Substitution	relative binding score [%]
S117H	-9.44
R132H	73.2
E147A	40.8
S9H	69.9
L164Y	33.9
C60W	2.4
G21V	58.1
L28Y	-0.764

Set 3
Target: PABPC1L2, full length, GST fusion (mouse, UniProt A0ABA7IW68)
Technique: RNAcompete
Molecule type: RNA
Medium: in vitro
Concentration: 20 nM
Notes: 7-mer, probes averaged, single round
Reference: mean of 7-mers
Direction: higher = stronger binding
Residues (chain): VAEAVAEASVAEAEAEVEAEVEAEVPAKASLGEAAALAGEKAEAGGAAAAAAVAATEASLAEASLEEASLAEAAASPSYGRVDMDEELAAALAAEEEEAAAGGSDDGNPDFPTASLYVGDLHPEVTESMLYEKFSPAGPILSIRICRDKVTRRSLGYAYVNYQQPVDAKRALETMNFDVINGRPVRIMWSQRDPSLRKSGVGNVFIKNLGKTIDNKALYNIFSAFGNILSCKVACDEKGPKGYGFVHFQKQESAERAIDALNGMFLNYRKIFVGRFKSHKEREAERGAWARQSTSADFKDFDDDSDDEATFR
Strand	7-mer Z-score
AAGAAGA	0.709
UGUAGAG	-0.153
GCAUCCA	-0.0337
GCUGUCC	-0.2
UCGCAGU	-0.295
UCGAGUA	-0.17
AAAUGGC	1.3
UAUCGUA	-0.222

Further values, each from its own experiment
Molecule	target	assay	test system	setting	endpoint	result
HPLARTAKV	HLA class I histocompatibility antigen, A alpha chain, allele A*80:01 (Homo sapiens, UniProt P04439)	peptide-MHC binding	peptide	concentration not given	binding	inactive

Excerpt of the above (set 3):
Strand	7-mer Z-score
UGUAGAG	-0.153
GCAUCCA	-0.0337
GCUGUCC	-0.2
UCGCAGU	-0.295
